{"data": "Values quoted from earlier work as cited in several papers", "note": "Compare with care: the assays were run in different laboratories. Numbers after ± are the reported error."}
{"SMILES": "O=C(OCC[18F])C1C2CCC(CC1c1ccc(/C=C\\I)cc1)N2 (stereo not shown)", "tested on": "SERT", "assay": "HRRT PET", "system": "awake rhesus monkey, medulla", "quantity": "time to peak uptake", "value": "85 min"}
{"SMILES": "CCCC(C(=O)c1ccccc1)N1CCCC1 (stereo not shown)", "system": "human, blood", "conditions": "rectal", "quantity": "detection time in blood", "value": "20 h"}
{"SMILES": "CC[C@H](C)C(=O)N1CCC(NC(=O)Nc2ccc(OC(F)(F)F)c(F)c2)CC1", "tested on": "human CYP2C8", "assay": "inhibitor", "conditions": "up to solubility limit", "quantity": "inhibition", "value": "no inhibition"}
{"SMILES": "CCCCCc1cc(O)c2c(c1)OC(C)(C)C1CCC(C)=CC21 (single isomer, unassigned; (-))", "system": "human, plasma", "quantity": "fraction unbound", "value": 0.03}
{"SMILES": "CN[C@H](CC(C)C)C(=O)N[C@H]1C(=O)N[C@@H](CC(N)=O)C(=O)N[C@H]2C(=O)N[C@H]3C(=O)N[C@H](C(=O)N[C@H](C(=O)O)c4cc(O)cc(O)c4-c4cc3ccc4O)[C@H](O)c3ccc(c(Cl)c3)Oc3cc2cc(c3O[C@@H]2O[C@H](CO)[C@@H](O)[C@H](O)[C@H]2O[C@H]2C[C@](C)(NCc3ccc(-c4ccc(Cl)cc4)cc3)[C@H](O)[C@H](C)O2)Oc2ccc(cc2Cl)[C@H]1O", "system": "mouse, plasma", "conditions": "intravenous, 75 mg/kg (MTD)", "quantity": "Tmax", "value": "15 min"}
{"SMILES": "CC[C@H](C)[C@H](N)C(=O)N[C@@H](CC(C)C)C(=O)N[C@@H](CO)C(=O)N[C@@H](C)C(=O)N[C@H](C(=O)N[C@@H](Cc1c[nH]c2ccccc12)C(=O)N[C@@H](CO)C(=O)NCC(=O)N[C@H](C(=O)N[C@@H](CCCCN)C(=O)N[C@@H](CO)C(=O)N[C@@H](CC(C)C)C(=O)N[C@@H](Cc1ccccc1)C(N)=O)[C@@H](C)CC)[C@@H](C)CC", "system": "human erythrocytes", "quantity": "HC50", "value": "20 µM"}
{"SMILES": "C=CCc1cc2c(c(OC)c1OC)OCO2", "tested on": "3T3 mouse fibroblasts", "assay": "cytotoxicity", "quantity": "IC50", "value": "22 µM"}
{"SMILES": "CCCCCCCC(=O)OC[C@H](NC(=O)[C@H](CO)NC(=O)CN)C(=O)N[C@@H](Cc1ccccc1)C(=O)N[C@@H](CC(C)C)C(=O)N[C@@H](CO)C(=O)N1CCC[C@H]1C(=O)N[C@@H](CCC(=O)O)C(=O)N[C@@H](Cc1cnc[nH]1)C(=O)N[C@@H](CCC(N)=O)C(=O)N[C@@H](CCCNC(=N)N)C(=O)N[C@H](C(=O)N[C@@H](CCC(N)=O)C(=O)N[C@@H](CCC(N)=O)C(=O)N[C@@H](CCCNC(=N)N)C(=O)N[C@@H](CCCCN)C(=O)N[C@@H](CCC(=O)O)C(=O)N[C@@H](CO)C(=O)N[C@@H](CCCCN)C(=O)N[C@@H](CCCCN)C(=O)N1CCC[C@H]1C(=O)N1CCC[C@H]1C(=O)N[C@@H](C)C(=O)N[C@@H](CCCCN)C(=O)N[C@@H](CC(C)C)C(=O)N[C@@H](CCC(N)=O)C(=O)N1CCC[C@H]1C(=O)N[C@@H](CCCNC(=N)N)C(=O)O)C(C)C", "conditions": "injection, concentration not given", "quantity": "half-life", "value": "21 ± 3 min"}
{"SMILES": "CC1(C)N=C(N)N=C(N)N1c1cccc(Cl)c1", "tested on": "respiratory syncytial virus", "scale": "reference: cytotoxic over antiviral concentration", "quantity": "selectivity index", "value": "> 10000"}
{"SMILES": "CCCCCc1cc(O)c2c(c1)OC(C)(C)C1CCC(C)=CC21 (stereo not shown)", "quantity": "logP", "value": 6.42}
{"SMILES": "CCCCCc1cc(O)c2c(c1)OC(C)(C)C1CCC(C(=O)O)=CC21 (stereo not shown)", "system": "human, plasma", "conditions": "inhalation of cannabis", "scale": "reference: THC", "quantity": "plasma level ratio", "value": "~2 fold"}
{"SMILES": "CC1(C)N=C(N)N=C(N)N1c1cccc(C(F)(F)F)c1", "tested on": "respiratory syncytial virus", "scale": "reference: cytotoxic over antiviral concentration", "quantity": "selectivity index", "value": "> 10000"}
{"SMILES": "CC(C)C[C@@H]1NC(=O)[C@H](C(C)C)NC(=O)[C@H](CO)NC(=O)CNC(=O)CNC(=O)[C@H](CCCNC(=N)N)NC(=O)[C@@H]2CCCN2C(=O)[C@@H](NC(=O)CC[C@H](NC(=O)c2ccc(N(C)Cc3cnc4nc(N)nc(N)c4n3)cc2)C(=O)O)C(C)(C)SSC[C@@H](C(=O)O)NC(=O)CNC(=O)[C@H]([C@@H](C)O)NC(=O)[C@H](C(C)C)NC1=O", "tested on": "MOLT-3 (LFA-1-expressing)", "assay": "cytotoxicity", "quantity": "IC50", "value": "2.75 µM"}
{"note": "A few entries again:"}
{"SMILES": "CCCCCc1cc(O)c2c(c1)OC(C)(C)C1CCC(C(=O)O)=CC21 (stereo not shown)", "system": "human, plasma", "conditions": "inhalation of cannabis", "scale": "reference: THC", "quantity": "plasma level ratio", "value": "~2 fold"}
